Experimental data from different studies.
Parts stem from different laboratories: compare values within a part only. Changes are numbered by the printed parent chain.

Sample 1 — target: CCND3, cyclin fold, Cln2 fusion (human); method: yeast growth competition, sequencing; matrix: yeast; notes: weak parent motif; relative to: not given; reading: higher = stronger binding
Parent: viral docking peptide; TSVRRALFTGGSD; partner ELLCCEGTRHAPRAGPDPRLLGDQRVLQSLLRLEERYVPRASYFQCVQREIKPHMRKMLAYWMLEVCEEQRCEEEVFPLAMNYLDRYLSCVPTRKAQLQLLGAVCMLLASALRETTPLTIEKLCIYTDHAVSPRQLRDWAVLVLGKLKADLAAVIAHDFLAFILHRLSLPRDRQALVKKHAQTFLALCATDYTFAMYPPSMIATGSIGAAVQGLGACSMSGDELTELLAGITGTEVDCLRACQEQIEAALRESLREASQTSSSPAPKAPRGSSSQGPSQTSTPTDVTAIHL
| Change | normalised enrichment score |
| --- | --- |
| TSVRRALFTKGSD [G10K] | -0.0115 |
| TSVRRALFTAGSD [G10A] | 0.161 |
| TSGRRALFTGGSD [V3G] | 0.168 |
| TSVRRALFTGESD [G11E] | -0.285 |
| TSVRLALFTGGSD [R5L] | -0.239 |
| TSVRRMLFTGGSD [A6M] | -0.545 |
| TSVRRALFTGRSD [G11R] | -0.00431 |

Sample 2 — method: aptamer microarray, sandwich; molecule type: DNA with 2'F-ANA; matrix: in vitro; concentration: 200 nM; added: Cy3 exosite-II aptamer, 400 nM; reading: higher = stronger binding; oligonucleotide: GGTTGGTGTGGTTGG
Target: Prothrombin, mature alpha-thrombin (F2, Homo sapiens, UniProt P00734)
Notes: whole 15-mer aptamer, many near background
| Modification | mean fluorescence intensity |
| --- | --- |
| 2'F-ANA at 1 4 6 7 9 10 11 13 15 | 53.4 a.u. |
| 2'F-ANA at 1 6 8 9 10 14 | 48.9 a.u. |
| 2'F-ANA at 1 2 4 5 7 8 9 14 15 | 46.8 a.u. |
| 2'F-ANA at 4 5 6 7 8 9 13 | 53.9 a.u. |
| 2'F-ANA at 1 3 4 6 7 8 10 | 66.1 a.u. |
| 2'F-ANA at 1 4 5 10 11 13 14 15 | 54.1 a.u. |
| 2'F-ANA at 1 2 3 5 6 8 11 12 15 | 527 a.u. |
| 2'F-ANA at 2 6 7 8 10 11 13 15 | 101 a.u. |

Sample 3 — method: protein-binding microarray; molecule type: double-stranded DNA, one strand shown; matrix: in vitro; concentration: not given; reading: higher = stronger binding
Target: Protein C-ets-1 (ETS1, Homo sapiens, UniProt P14921, residues 1-441, full length assumed)
Notes: k-mer, scored over probes, only values ≥0.25
Residues (chain): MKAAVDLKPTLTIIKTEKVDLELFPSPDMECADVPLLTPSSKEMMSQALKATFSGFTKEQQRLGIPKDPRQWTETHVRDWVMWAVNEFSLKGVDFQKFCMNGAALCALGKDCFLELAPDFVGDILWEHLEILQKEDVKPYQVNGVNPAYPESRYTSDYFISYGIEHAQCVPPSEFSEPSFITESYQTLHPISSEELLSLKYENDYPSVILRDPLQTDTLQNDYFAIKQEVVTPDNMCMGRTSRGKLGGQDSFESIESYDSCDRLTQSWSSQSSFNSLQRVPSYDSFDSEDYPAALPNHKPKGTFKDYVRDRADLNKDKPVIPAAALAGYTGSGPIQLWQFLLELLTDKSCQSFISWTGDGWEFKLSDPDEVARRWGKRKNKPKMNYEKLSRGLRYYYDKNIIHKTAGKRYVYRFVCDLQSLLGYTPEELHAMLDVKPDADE
| Oligonucleotide | E-score |
| --- | --- |
| GGATATAC | 0.388 |
| CGGAATAG | 0.296 |
| TGCAGGAA | 0.397 |
| CCCGGACG | 0.398 |
| CAGCAGGA | 0.282 |
| ACTTCCGC | 0.49 |
| TCCGCTAA | 0.266 |
| CTTTCCGC | 0.396 |

Sample 4 — method: protein-binding microarray; molecule type: double-stranded DNA, one strand shown; matrix: in vitro; concentration: 250 nM; notes: 60-bp whole probe; added: salmon DNA 0.4 mg/ml; relative to: random background probes; reading: higher = stronger binding; shared flanks, not repeated: GCCTAGCAC … GTCTTGATTCGCTTGACGCTGCTG
Target: Interferon regulatory factor 5, full length, phosphomimetic (IRF5, Homo sapiens, UniProt Q13568-2, residues 1-514, K96S/S451D/S453D/S456D/S462D)
| Oligonucleotide | log fluorescence |
| --- | --- |
| TCATTTTTTTTCTTTAAACTGTGCTAG | 1.32 z-score |
| GACGACCTCAGTCTCGAGACGTGCTAG | -0.136 z-score |
| CACTCTTGCTTTTTAGATCGGTGCTAG | 0.692 z-score |
| TTAGGTATCCTTAACCTTTAGTGCTAG | 0.124 z-score |
| GACGGACTGCTTTTCCTCACGTGCTAG | 0.163 z-score |
| TTAGATCTAAGTATCGATTAGTGCTAG | 5.85 z-score |
| TTAGGTTTCGACTTCCGGTTAGTGCTA | 7.32 z-score |
| GACGGTTCCGGGACTGGGGACGTGCTA | -0.0319 z-score |

Sample 5 — target: tungstate, free oxyanion; method: microfluidic competitive inhibition; matrix: in vitro, cell-free expressed; concentration: not given; reading: lower = stronger binding
Notes: derived from inhibition constants, unchanged parent 2230 nM
Parent: PafA, mature enzyme, eGFP fusion (Elizabethkingia meningoseptica, UniProt Q9KJX5); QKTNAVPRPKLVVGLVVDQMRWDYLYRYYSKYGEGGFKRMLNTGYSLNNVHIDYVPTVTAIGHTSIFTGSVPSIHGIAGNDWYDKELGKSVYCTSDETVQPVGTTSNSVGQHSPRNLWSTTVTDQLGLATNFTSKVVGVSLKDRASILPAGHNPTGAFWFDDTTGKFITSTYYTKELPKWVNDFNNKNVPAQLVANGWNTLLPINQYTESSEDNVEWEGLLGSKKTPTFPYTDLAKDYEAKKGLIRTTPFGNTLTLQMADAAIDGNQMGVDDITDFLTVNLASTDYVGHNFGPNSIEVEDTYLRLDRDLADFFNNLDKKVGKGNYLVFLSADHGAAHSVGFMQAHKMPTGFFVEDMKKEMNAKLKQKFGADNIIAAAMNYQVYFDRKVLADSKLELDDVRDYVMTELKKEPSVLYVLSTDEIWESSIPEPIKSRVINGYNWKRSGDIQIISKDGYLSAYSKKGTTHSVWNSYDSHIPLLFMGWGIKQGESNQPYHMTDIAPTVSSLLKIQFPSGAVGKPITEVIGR
| Change | oxyanion analog dissociation constant |
| --- | --- |
| K225V | 2.27 µM |
| E354G | 1.9 µM |
| V109G | 2.02 µM |
| L126G | 968 nM |
| I509V | 1.91 µM |
| P114G | 1.12 µM |
| G454A | 2.07 µM |
| L244V | 2.45 µM |
| D124G | 1.2 µM |
| L234G | 1.77 µM |
| T104V | 1.61 µM |
| R434V | 1.04 µM |
| Y45G | 2.44 µM |
| A282V | 78.1 µM |
| S504G | 1.93 µM |
| D401V | 2.2 µM |
| A336G | 1.64 µM |
| W198V | 1.17 µM |
| V403A | 2.34 µM |
| K166G | 2.33 µM |
| H289G | 11.1 µM |
| W118V | 1.68 µM |
| K518G | 1.92 µM |
| S392G | 2.08 µM |
| G445V | 339 nM |

Mixed results
| Substance | target | assay | test system | conditions | scale | endpoint | value |
| --- | --- | --- | --- | --- | --- | --- | --- |
| PhoQ, residues 284 288 289 292 302 303 GNNTDL | PhoP, residues 12 14 15 18 19 AQCLL (Escherichia coli, UniProt P23836) | Sort-seq, refers to: YFP reporter | E. coli | PhoQ-PhoP variant library, added: 10 µM Mg2+ | relative to: high Mg2+ state, higher = stronger signaling | fold induction | 1.18 |

Repeated from above (mixed results):
| Substance | target | assay | test system | conditions | scale | endpoint | value |
| --- | --- | --- | --- | --- | --- | --- | --- |
| PhoQ, residues 284 288 289 292 302 303 GNNTDL | PhoP, residues 12 14 15 18 19 AQCLL (Escherichia coli, UniProt P23836) | Sort-seq, refers to: YFP reporter | E. coli | PhoQ-PhoP variant library, added: 10 µM Mg2+ | relative to: high Mg2+ state, higher = stronger signaling | fold induction | 1.18 |
